Measured values gathered from unrelated publications.
Parts stem from different laboratories: compare values within a part only. Values joined by “and” are separate records of one study, mostly repeats; a detail may differ.

Block 1 — cell line: normal-adjacent organoid sample E; method: CellTiter-Glo; concentration: 1 µM; notes: replicate mean; relative to: DMSO; endpoint: viability
Compound = c1ccc(N2CCN(Cc3nc4ccccc4[nH]3)CC2)nc1; value = 134%
Compound = C[C@H](NC(=O)Nc1cc2[nH]ncc2c(CO)n1)c1ccccn1; value = 124%
Compound = CCS(=O)(=O)c1cc2cc(C[C@](O)(CC(C)(C)c3ccc(F)cc3C(N)=O)C(F)(F)F)[nH]c2cn1; value = 102%
Compound = Cc1c(N2CCCC2)nc2ccc(Br)cc2c1C(=O)NC[C@H](CCC(=O)O)c1ccccc1Cl; value = 97.2%
Compound = Cc1ccc2[nH]c(CNCCCc3ccncc3)cc(=O)c2c1; value = 102%
Compound = Cc1c(N2CCNCC2)nc2ccc(Br)cc2c1C(=O)NC[C@H](CCC(=O)O)c1ccccc1Cl; value = 106%
Compound = O=C(O)[C@@H]1[C@@H](Cn2nnc3ccccc3c2=O)CC[C@H]1C(=O)c1ccc(OCCC2CCOCC2)cc1; value = 106%
Compound = CC(=O)Nc1c(F)cc(C(=O)N[C@H]2CC[C@H](O)CC2)cc1O[C@@H](C)c1ccccc1; value = 89.2%
Compound = CO[C@@H](C)c1c(Nc2ccc([C@H](N(C)C(=O)C3CCS(=O)(=O)CC3)C(F)(F)F)cc2)cnc2cc(Cl)nn12; value = 97.3%
Compound = CC(=O)C1=C(C)N(c2cccc(C(F)(F)F)c2)C(=O)N[C@H]1c1ccc(C#N)nc1; value = 113%
Compound = Cc1c(Oc2ccc(F)cc2)c(OC(C)C)nn1-c1ccc(C2CC2)cn1; value = 106%
Compound = C[C@@H]1CN(c2cc(-c3nn(C)c4ccc(OC5(C)CC5)cc34)ncn2)C[C@H](C)O1; value = 112%
Compound = O=C(Nc1cnc(Oc2ccc(F)cc2)nc1)N1CCc2ncccc2[C@@H]1c1ccc(F)cc1; value = 167%
Compound = CN1CCN(C(=O)C(C)(C)c2ccc(C(=O)Nc3cn4cc(-c5ccncc5)ccc4n3)cc2)CC1; value = 40.2%
Compound = O=C(NCCN1CCOCC1)c1ccc2c(c1)C(=O)c1ccc(Nc3ccc(F)c(NC(=O)c4ccccc4)c3)cc1CC2; value = 85.6%
Compound = O=C(NC[C@@H]1[C@H]2CN(C(=O)OCc3cc(C(F)(F)F)cc(C(F)(F)F)c3)C[C@@H]12)c1ccc2[nH]nnc2c1; value = 82.8%
Compound = CNCc1ccccc1-c1csc([C@@H](C)Nc2nc(C)nc3cc(OC)c(OC)cc23)c1; value = 49.6%
Compound = O=C(Nc1cccnn1)N1CCC(=Cc2cccc(Oc3ccc(C(F)(F)F)cn3)c2)CC1; value = 87.7%
Compound = CN(C)CC#Cc1ccc(OCCCc2sc(N3CCc4cccc(C(=O)Nc5nc6ccccc6s5)c4C3)nc2C(=O)O)c(F)c1; value = 56.4%
Compound = CN(C)C(=O)Cn1cc(-c2nc(C3(c4ccc(-c5cnc(N)nc5)cc4)CC3)no2)cn1; value = 94%
Compound = CC1=C(C#N)C(c2ccc3[nH]nc(C)c3c2)C(C#N)=C(C)N1; value = 122%
Compound = Cc1ccccc1Oc1cc(-n2c(=O)cc(C(F)(F)F)[nH]c2=O)c2ccccc2c1Cl; value = 98.1%
Compound = NS(=O)(=O)c1cc(NC(=O)C2(c3ccccc3Cl)CC2)ccc1Oc1cccc(Cl)c1; value = 110%
Compound = O=C(O)c1cc(-c2ccc(C3CCNCC3)cc2)c2ccc(-c3ccc(C(F)(F)F)cc3)cc2c1; value = 118%

Block 2 — read-out: enzyme activity; action: inhibitor; concentration: 0.5 µM; relative to: control; endpoint: remaining activity
Target: Aurora kinase C (AURKC, Homo sapiens, UniProt Q9UQB9)
Construct (Q9UQB9 1-309): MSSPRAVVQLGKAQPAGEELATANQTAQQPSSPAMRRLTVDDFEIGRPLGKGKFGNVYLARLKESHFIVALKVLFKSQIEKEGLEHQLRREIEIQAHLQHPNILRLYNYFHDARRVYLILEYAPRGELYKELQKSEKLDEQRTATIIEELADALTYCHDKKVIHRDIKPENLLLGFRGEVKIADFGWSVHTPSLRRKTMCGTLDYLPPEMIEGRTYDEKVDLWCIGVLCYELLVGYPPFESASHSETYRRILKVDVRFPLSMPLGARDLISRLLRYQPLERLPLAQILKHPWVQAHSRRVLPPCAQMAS
SMILES = CC(C)n1cnc2c(Nc3cccc(Cl)c3)nc(NCCO)nc21; value = 92.1%
SMILES = N#CC(c1ccnc(NCCc2cccnc2)n1)c1nc2ccccc2s1 (centres unmarked); value = 96%
SMILES = O=C1NC(=O)/C(=C/c2ccc3c(c2)OC(F)(F)O3)S1; value = 98.1%
SMILES = N#C/C(=C(/N)SC1C=CC=CC1)c1cccc(C(O)c2ccncc2)c1 (centres unmarked); value = 101%
SMILES = CCCCc1c(-c2ccc(O)cc2)[nH]c2nccnc12; value = 44.9%
SMILES = CCN(CC)CCCCN1c2ccccc2Oc2ccc(Cl)cc21; value = 99.3%
SMILES = CC(C)N(CCC(=O)c1ccc2ccccc2c1)Cc1ccccc1; value = 97.5%
SMILES = O=C(O)/C=C/c1cc(Br)c(Br)c(Br)c1Br; value = 90.3%
SMILES = COc1cc2c(N3CCN(C(=O)Nc4ccc(OC(C)C)cc4)CC3)ncnc2cc1OCCCN1CCCCC1; value = 97%
SMILES = CNc1cc2c(Nc3cccc(Br)c3)ncnc2cn1; value = 85.9%
SMILES = C[C@@H](N)[C@H]1CC[C@H](C(=O)Nc2ccncc2)CC1; value = 94.9%
SMILES = O=C(c1ccccc1)c1ccc(N2CCOCC2)cc1O; value = 102%
SMILES = CC(C)(C)c1nc2c3cc[nH]c(=O)c3c3cc(F)ccc3c2[nH]1; value = 29.2%
SMILES = c1cc(-c2cnn3cc(-c4ccc(OCCN5CCCCC5)cc4)cnc23)ccn1; value = 70.4%
SMILES = O=Nc1c(-c2c(O)[nH]c3ccccc23)[nH]c2ccccc12; value = 56.4%
SMILES = NC(=O)c1ccc(-c2nc(-c3ccc4c(c3)OCCO4)c(-c3ccccn3)[nH]2)cc1; value = 87.8%
SMILES = FC(F)(F)c1ccc(/C=C/c2nc(COc3ccc(CCCCn4ccnn4)cc3)co2)cc1; value = 97.1%
SMILES = Nc1nc(Nc2ccc(S(N)(=O)=O)cc2)nn1C(=S)Nc1c(F)cccc1F; value = 16.2%
SMILES = NC(=O)c1cccc(-c2cc(Nc3ccc(OC(F)(F)F)cc3)ncn2)c1; value = 101%
SMILES = Clc1ccc(Nc2nnc(Cc3ccncc3)c3ccccc23)cc1; value = 87%
SMILES = O=C1c2ccccc2-c2nc3nnnn3nc21; value = 95.4%

Block 3 — species: C57BL/6 CES1-/- mice, EL4 tumour; sample: EL4 tumour; route: subcutaneous; dose: 0.3 mg/kg/day DON equivalent; time: 5 days; endpoint: metabolite peak intensity
Structure (SMILES): CC(=O)N[C@@H](Cc1c[nH]c2ccccc12)C(=O)N[C@@H](CCC(=O)C=[N+]=[N-])C(=O)OC(C)C
method = UPLC-MS/MS metabolomics; refers to = N-acetylalanine; notes = normalised to tissue mass; reading = higher = more metabolite; value = 5.33e+06 a.u. and 7.83e+06 a.u. and 6.73e+06 a.u. and 6.52e+06 a.u. and 7.75e+06 a.u. and 8.15e+06 a.u.
method = UPLC-MS/MS; refers to = FAD; value = 155000 a.u. and 149000 a.u. and 130000 a.u. and 153000 a.u. and 151000 a.u. and 175000 a.u.
method = UPLC-MS/MS; refers to = N,N,N-trimethyl-5-aminovalerate; value = 1.26e+08 a.u. and 3.04e+08 a.u. and 3.36e+08 a.u. and 3.27e+08 a.u. and 2.06e+08 a.u. and 1.9e+08 a.u.
method = UPLC-MS/MS metabolomics; refers to = gamma-glutamylglycine; notes = normalised to tissue mass; value = 6.36e+06 a.u. and 6.2e+06 a.u. and 1.02e+07 a.u. and 1.07e+07 a.u. and 3.59e+06 a.u. and 8.84e+06 a.u.
method = UPLC-MS/MS metabolomics; refers to = N-acetylleucine; notes = normalised to tissue mass; reading = higher = more metabolite; value = 88500 a.u. and 106000 a.u. and 115000 a.u. and 118000 a.u. and 141000 a.u. and 112000 a.u.
method = LC-MS/MS metabolomics; refers to = 4-guanidinobutanoate; notes = normalised to tissue mass; reading = higher = more metabolite; value = 6.15e+06 a.u. and 6.94e+06 a.u. and 4.03e+06 a.u. and 7.94e+06 a.u. and 4.61e+06 a.u. and 9.5e+06 a.u.
method = UPLC-MS/MS metabolomics; refers to = N-formylmethionine; notes = normalised to tissue mass; reading = higher = more metabolite; value = 484000 a.u. and 597000 a.u. and 482000 a.u. and 485000 a.u. and 306000 a.u. and 251000 a.u.
method = UPLC-MS/MS metabolomics; refers to = glutamine; notes = normalised to tissue mass; value = 2.44e+09 a.u. and 2.39e+09 a.u. and 2.42e+09 a.u. and 2.82e+09 a.u. and 2.4e+09 a.u. and 2.1e+09 a.u.

Block 4 — cell line: mouse MPNST tumor cells; method: high-content immunofluorescence imaging; refers to: nuclear SOX9; concentration: 10 µM; time: 12 h; notes: mean of 2 replicates; relative to: DMSO control; reading: higher = more nuclear SOX9; endpoint: nuclear SOX9 intensity
Compound = COC(=O)[C@H](Cc1ccc([N+](=O)[O-])cc1)NC(=O)c1cccc2ccccc12; value = 99.3 % of DMSO
Compound = CNNCc1ccc(C(=O)NC(C)C)cc1; value = 94.6 % of DMSO and 90.3 % of DMSO
Compound = CO[C@H]1/C=C/O[C@@]2(C)Oc3c(C)c(O)c4c(O)c(c(/C=N/N5CCN(C)CC5)c(O)c4c3C2=O)NC(=O)/C(C)=C\C=C\[C@H](C)[C@H](O)[C@@H](C)[C@@H](O)[C@@H](C)[C@H](OC(C)=O)[C@@H]1C; value = 89.9 % of DMSO
Compound = CN1c2cc3c(cc2N=C(c2ccc(C(=O)O)cc2)c2ccccc21)C(C)(C)CCC3(C)C; value = 132 % of DMSO
Compound = Cc1cc(C)nc(NS(=O)(=O)c2ccc(N)cc2)n1; value = 99.9 % of DMSO
Compound = O=C1S/C(=C\c2ccc(OCc3cccc(B(O)O)c3)cc2)C(=O)N1Cc1ccc(F)cc1; value = 93.4 % of DMSO
Compound = COc1ccc2nc3n[nH]c(C)c3c(NCCOCCO)c2c1; value = 104 % of DMSO
Compound = CNC(=O)c1c(I)c(C(=O)NCC(=O)Nc2c(I)c(C(=O)O)c(I)c(C(=O)NCCO)c2I)c(I)c(N(C)C(C)=O)c1I; value = 93.1 % of DMSO
Compound = CC[C@@H](CO)NCCN[C@@H](CC)CO; value = 102 % of DMSO and 105 % of DMSO
Compound = CNc1nnc(SCc2ccccc2)s1; value = 100 % of DMSO
Compound = CN1CCN(c2ccc(-c3cccc(CN4CCOCC4)c3)cc2NC(=O)c2c[nH]c(=O)cc2C(F)(F)F)CC1; value = 93.7 % of DMSO and 102 % of DMSO
Compound = Nc1ccc(S(N)(=O)=O)cc1; value = 99 % of DMSO
Compound = CC(=O)OCC(=O)[C@@]1(O)CC[C@H]2[C@@H]3CCC4=CC(=O)CC[C@]4(C)[C@@]3(F)[C@@H](O)C[C@@]21C; value = 80.9 % of DMSO
Compound = O=S(=O)(c1cccc2cnccc12)N1CCNCC1; value = 103 % of DMSO
Compound = CC1=C(C(=O)Nc2cc(Cl)ccc2Cl)C(c2ccco2)C2=C(CCCC2=O)N1 (centres unmarked); value = 95 % of DMSO
